# Assay results collected from several papers.
# Each numbered part is a random draw from the data of one study; scales do not carry over between parts. Positions count from the first letter of the parent shown.

# Block 1
# Target: Histone acetyltransferase KAT6A, winged helix 1, GST fusion (KAT6A, Homo sapiens, UniProt Q92794, residues 1-85)
# Technique: protein binding microarray
# Form: double-stranded DNA, one strand shown
# Sample: in vitro
# Tested at: not given
# Notes: 8-mer, flanks averaged, mean of 2 arrays, mostly near background
# Reference: not given
# Reading: higher = stronger binding
# Residues (chain): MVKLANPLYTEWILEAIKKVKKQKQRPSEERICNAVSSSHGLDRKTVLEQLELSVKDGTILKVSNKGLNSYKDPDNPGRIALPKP
Oligonucleotide,E-score
CTAAGATC,-0.018
AATGCTGA,-0.256
CAGACATG,-0.0362
ACTGGATG,-0.209
CGAGTCCA,-0.00853
ACCGTAAG,0.206
AAATTTAT,-0.127

# Block 2
# Target: Ras GTPase-activating protein-binding protein 1, C-terminal RGG region (G3BP1, Homo sapiens, UniProt Q13283)
# UniProt Q13283, sequence (whole entry, looked up): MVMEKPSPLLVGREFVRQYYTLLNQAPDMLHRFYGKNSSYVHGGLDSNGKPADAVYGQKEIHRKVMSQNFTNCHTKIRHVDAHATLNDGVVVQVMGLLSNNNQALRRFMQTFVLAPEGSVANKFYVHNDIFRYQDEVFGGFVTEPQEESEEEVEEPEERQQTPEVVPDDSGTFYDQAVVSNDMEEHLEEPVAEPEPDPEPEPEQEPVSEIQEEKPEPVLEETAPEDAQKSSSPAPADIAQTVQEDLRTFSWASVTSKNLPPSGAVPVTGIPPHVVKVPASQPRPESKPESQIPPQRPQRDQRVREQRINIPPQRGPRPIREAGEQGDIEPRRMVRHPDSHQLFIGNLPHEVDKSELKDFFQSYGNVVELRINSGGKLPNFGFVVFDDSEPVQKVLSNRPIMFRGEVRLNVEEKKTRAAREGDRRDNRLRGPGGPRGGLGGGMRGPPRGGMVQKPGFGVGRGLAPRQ
# Technique: RNA Bind-n-Seq
# Form: RNA
# Sample: in vitro
# Tested at: 1 µM
# Notes: whole 134-nt RNA, ends assumed
# Added: 150 mM KCl
# Reference: input library
# Reading: higher = stronger binding
Oligonucleotide,log2 enrichment
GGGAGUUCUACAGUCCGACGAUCAAGUCCUGUGCUACACAUCGUAUGUACCGAAUCGGGCCCCGGGGCCCCGGCCCCGGGAAAGUAUUAUGUUACGCCGUUCGGAUCUGCACUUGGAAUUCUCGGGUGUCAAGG,-2.47
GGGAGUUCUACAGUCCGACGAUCGCUGUUCUUGCCUUAGCUGCAUCUUGGACCUCAAGACAAGUAGGAGAACGGACGUUGACCGGUACGGUAAUAGACAGUGGAGAUGGUGUCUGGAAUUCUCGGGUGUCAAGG,-1.58
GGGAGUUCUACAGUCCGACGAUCGCAGGAAGUAAAAACAAAUGGAAAUGCUUCGGAUAGUGGCAGUGGUGGGGGUUGCUAAGGAAAGGGUGGGAUGGGAGUGGGUAAAGAGUUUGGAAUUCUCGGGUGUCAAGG,1.29
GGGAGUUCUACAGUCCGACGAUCGCAGGAAGUAAAAACAAAUGGAAAUGCUUCGGAUAGUGGCAGGGGUGGGGGUUGCUAAGGAAAGGGUGGGAAAGGAGUGGGUAAAGAGUUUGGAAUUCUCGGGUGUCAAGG,1.89
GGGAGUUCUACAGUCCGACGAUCCAAGUCCUGUGCUACACAUCGUAUGUACCGAAUCGGAAAGGAAAAAAAGGUUUGGAAAGUAUUAUGUUACGCCGUUCGGAUCUGCACUUCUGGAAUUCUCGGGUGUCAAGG,-2.1
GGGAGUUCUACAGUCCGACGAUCGCAGGAAGUAAAAGCAAAUGGAAAUGCUUCGGAUAGUGGCAGGGGUGGGGGUUGCUAAGGAAAGGGUGGGAUGGGAGUGGGUAAAGAGUUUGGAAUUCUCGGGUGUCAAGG,1.69
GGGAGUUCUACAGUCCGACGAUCCCUCAAGUCCUGUGCUACACAUCGUAUGUACCGAAUCGGGAAGGAAGGGAAGGAAAGUAUUAUGUUACGCCGUUCGGAUCUGCACUUCCAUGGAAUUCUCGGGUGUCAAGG,-1.37
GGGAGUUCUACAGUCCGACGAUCUGGGAGGUGGAUCUUGUUUAUUUUUUUAGCUCAUUUCCAGGGGUGGGAAUUUUUUUUUAAUAUGUGUCAUGAAUAAAGUUGUUUUUGAAAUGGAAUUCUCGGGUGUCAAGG,3.03

# Block 3
# Target: CCNF, cyclin fold, Cln2 fusion (human)
# Technique: yeast growth competition, sequencing
# Sample: yeast
# Notes: strong parent motif
# Reference: not given
# Reading: higher = stronger binding
# Starting sequence: RB1 docking peptide (human); PKPLKKLRFDIEG
Change,normalised enrichment score
L4E,0.81
K5R F9L,0.802
D10V,2.41
E12P,1.43
R8H,2.32
G13C,2.27
P3S,1.49

# Further values, each from its own experiment
Substance,target,test,test system,conditions,how to read,measurement,result
"PhoQ, residues 284 288 289 292 302 303 TVTVVA","PhoP, residues 12 14 15 18 19 LYHSL (Escherichia coli, UniProt P23836)","Sort-seq, refers to: YFP reporter",E. coli,"PhoQ-PhoP variant library, added: 10 µM Mg2+","reference: high Mg2+ state, higher = stronger signaling",fold induction,1.1

# A few entries again (further values, each from its own experiment):
Substance,target,test,test system,conditions,how to read,measurement,result
"PhoQ, residues 284 288 289 292 302 303 TVTVVA","PhoP, residues 12 14 15 18 19 LYHSL (Escherichia coli, UniProt P23836)","Sort-seq, refers to: YFP reporter",E. coli,"PhoQ-PhoP variant library, added: 10 µM Mg2+","reference: high Mg2+ state, higher = stronger signaling",fold induction,1.1
